Published values collected from several papers.
Lines come from different studies, so protocols differ. ± gives the spread as reported.
CNR2: Cannabinoid receptor 2 (CNR2, Homo sapiens, UniProt P34972)
Chain of UniProt P34972 (whole entry, looked up): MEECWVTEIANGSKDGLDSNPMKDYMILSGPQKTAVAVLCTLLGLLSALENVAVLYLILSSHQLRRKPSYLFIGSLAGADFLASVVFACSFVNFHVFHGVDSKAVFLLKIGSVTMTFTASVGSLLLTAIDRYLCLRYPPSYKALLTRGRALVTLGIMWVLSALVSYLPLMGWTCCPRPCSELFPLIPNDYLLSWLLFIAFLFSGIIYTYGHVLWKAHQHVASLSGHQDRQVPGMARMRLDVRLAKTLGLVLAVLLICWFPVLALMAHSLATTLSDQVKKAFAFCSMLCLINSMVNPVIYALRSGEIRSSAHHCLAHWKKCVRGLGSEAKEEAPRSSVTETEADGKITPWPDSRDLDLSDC
fbpC: Diacylglycerol acyltransferase/mycolyltransferase Ag85C (fbpC, Mycobacterium tuberculosis, UniProt P9WQN9)
Chain of UniProt P9WQN9 (whole entry, looked up): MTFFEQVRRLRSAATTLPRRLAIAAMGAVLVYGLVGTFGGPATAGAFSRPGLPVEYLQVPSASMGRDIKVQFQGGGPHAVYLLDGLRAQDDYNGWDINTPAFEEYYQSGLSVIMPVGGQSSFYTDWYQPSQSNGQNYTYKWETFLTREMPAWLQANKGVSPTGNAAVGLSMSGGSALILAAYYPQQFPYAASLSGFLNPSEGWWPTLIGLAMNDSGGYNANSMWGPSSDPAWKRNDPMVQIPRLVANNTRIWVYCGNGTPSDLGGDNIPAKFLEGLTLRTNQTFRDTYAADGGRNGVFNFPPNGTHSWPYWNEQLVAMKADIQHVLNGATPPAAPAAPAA
ADRA2A: Alpha-2A adrenergic receptor (ADRA2A, Homo sapiens, UniProt P08913)
Chain of UniProt P08913 (whole entry, looked up): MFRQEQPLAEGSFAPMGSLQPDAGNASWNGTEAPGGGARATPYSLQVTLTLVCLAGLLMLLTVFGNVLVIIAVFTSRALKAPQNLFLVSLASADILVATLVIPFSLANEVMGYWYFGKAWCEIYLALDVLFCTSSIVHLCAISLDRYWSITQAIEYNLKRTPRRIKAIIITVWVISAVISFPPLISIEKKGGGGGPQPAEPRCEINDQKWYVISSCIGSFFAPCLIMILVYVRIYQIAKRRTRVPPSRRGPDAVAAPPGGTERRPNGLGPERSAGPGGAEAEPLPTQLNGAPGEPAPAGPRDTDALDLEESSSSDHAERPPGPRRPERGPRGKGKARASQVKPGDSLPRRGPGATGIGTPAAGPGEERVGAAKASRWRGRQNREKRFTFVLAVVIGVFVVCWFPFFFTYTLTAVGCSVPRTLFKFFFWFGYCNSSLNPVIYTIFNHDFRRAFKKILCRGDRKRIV
Gabrg2/Gabra5 with β3 subunit: Gabrg2/Gabra5, with β3 subunit (Rattus norvegicus, UniProt P18508+P19969)
Chain of UniProt P18508 (whole entry, looked up): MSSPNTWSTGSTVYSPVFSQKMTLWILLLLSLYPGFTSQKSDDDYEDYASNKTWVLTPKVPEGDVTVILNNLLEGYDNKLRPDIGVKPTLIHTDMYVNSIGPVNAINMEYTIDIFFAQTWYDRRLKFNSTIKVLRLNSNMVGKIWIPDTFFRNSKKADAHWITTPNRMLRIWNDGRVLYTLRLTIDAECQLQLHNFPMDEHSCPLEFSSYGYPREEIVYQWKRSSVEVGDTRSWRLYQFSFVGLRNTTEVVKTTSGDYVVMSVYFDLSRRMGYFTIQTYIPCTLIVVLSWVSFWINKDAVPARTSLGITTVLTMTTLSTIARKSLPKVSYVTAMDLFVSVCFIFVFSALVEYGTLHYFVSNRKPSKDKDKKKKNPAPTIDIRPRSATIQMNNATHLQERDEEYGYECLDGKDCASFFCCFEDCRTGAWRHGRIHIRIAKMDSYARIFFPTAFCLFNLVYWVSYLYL
Chain of UniProt P19969 (whole entry, looked up): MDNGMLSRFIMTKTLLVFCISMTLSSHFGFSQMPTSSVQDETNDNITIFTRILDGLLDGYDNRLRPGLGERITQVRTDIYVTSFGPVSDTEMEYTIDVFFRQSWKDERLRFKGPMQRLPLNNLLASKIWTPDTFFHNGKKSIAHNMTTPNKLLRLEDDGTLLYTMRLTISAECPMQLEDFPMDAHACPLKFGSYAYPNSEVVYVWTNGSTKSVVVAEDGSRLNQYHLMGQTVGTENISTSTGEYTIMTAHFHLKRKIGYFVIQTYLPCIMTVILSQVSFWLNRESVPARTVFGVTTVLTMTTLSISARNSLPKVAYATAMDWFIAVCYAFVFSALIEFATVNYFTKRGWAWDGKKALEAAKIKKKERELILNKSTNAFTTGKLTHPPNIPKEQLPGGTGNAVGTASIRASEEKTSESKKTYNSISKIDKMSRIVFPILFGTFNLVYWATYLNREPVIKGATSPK
ribE: Riboflavin synthase (ribE, Mycobacterium tuberculosis, UniProt P9WK35)
Chain of UniProt P9WK35 (whole entry, looked up): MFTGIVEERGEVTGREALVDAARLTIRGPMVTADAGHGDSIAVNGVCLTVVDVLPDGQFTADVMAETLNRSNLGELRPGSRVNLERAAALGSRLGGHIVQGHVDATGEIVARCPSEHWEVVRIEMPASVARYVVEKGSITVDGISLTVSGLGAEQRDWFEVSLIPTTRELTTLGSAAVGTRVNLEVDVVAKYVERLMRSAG
OPRK1: Kappa-type opioid receptor (OPRK1, Homo sapiens, UniProt P41145)
Chain of UniProt P41145 (whole entry, looked up): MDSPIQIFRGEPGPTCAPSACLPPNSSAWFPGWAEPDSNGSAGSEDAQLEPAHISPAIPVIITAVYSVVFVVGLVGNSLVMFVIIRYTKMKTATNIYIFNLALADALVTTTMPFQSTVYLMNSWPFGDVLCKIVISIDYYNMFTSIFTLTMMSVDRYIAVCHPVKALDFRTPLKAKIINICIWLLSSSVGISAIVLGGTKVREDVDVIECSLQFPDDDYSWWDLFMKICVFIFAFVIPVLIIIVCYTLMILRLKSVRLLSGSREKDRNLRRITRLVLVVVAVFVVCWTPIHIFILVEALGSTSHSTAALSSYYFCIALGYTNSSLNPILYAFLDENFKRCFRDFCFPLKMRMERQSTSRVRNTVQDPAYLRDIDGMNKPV
Type II NADH:quinone oxidoreductase Ndh: Type II NADH:quinone oxidoreductase Ndh (Mycobacterium tuberculosis, UniProt P95160)
Chain of UniProt P95160 (whole entry, looked up): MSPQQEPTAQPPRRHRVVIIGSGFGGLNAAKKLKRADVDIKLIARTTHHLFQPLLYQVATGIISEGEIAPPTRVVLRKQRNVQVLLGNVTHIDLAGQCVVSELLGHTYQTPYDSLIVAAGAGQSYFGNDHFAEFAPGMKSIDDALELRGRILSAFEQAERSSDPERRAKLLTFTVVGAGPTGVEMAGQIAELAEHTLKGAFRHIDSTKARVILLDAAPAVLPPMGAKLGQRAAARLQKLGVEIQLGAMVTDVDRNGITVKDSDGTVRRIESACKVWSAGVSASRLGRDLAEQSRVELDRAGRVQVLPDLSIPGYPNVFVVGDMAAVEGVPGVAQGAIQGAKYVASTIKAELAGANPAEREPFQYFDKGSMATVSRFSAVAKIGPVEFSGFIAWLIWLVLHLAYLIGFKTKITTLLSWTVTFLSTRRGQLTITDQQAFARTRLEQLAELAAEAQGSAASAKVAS
Chain of UniProt P20272 (whole entry, looked up): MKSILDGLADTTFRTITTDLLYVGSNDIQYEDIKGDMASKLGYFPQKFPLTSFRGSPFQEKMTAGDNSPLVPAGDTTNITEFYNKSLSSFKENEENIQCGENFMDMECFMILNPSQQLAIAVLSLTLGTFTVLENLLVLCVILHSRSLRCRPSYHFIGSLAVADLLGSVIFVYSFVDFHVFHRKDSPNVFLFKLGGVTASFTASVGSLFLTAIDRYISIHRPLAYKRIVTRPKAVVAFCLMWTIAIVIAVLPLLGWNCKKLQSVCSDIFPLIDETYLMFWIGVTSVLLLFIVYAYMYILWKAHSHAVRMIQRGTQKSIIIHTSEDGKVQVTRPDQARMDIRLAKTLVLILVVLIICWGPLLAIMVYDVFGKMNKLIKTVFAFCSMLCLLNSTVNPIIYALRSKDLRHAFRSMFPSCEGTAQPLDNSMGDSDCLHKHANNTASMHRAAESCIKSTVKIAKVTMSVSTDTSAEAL
Chain of UniProt P26439 (whole entry, looked up): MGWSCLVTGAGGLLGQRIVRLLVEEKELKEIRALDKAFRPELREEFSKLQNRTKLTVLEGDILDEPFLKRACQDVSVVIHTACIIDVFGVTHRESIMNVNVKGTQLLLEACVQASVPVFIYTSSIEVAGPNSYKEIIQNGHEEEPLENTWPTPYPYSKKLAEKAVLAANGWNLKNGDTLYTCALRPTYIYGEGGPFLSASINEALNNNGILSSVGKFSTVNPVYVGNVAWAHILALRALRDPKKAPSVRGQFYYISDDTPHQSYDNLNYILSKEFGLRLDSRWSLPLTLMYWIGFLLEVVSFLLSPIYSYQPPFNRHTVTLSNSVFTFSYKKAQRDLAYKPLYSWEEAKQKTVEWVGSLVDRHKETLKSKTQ
Chain of UniProt P33535 (whole entry, looked up): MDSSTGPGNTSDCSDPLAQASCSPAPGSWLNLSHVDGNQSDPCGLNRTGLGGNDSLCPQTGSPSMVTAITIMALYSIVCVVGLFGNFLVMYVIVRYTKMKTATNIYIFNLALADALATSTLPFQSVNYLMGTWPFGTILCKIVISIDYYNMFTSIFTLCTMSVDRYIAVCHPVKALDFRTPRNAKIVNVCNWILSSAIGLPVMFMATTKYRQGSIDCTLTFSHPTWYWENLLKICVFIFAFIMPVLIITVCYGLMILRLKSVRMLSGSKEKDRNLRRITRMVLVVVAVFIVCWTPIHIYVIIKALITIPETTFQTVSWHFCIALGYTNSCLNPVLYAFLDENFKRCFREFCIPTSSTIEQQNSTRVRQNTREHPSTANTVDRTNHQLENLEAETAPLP
Chain of UniProt P07148 (whole entry, looked up): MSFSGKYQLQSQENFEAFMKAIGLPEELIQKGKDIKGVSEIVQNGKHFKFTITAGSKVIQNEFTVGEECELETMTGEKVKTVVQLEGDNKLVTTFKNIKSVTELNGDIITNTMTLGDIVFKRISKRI
Chain of UniProt P41146 (whole entry, looked up): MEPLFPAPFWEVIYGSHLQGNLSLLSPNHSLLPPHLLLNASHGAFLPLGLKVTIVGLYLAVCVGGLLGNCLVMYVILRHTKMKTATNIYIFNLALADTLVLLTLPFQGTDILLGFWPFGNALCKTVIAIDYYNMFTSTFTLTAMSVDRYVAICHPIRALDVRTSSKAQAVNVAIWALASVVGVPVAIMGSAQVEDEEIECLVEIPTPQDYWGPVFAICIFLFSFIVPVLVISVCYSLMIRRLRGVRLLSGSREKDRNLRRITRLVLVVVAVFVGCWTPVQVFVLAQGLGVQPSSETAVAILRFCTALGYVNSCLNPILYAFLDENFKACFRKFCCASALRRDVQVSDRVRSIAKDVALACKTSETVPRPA

N[C@@H](CCC[C@H](N)C(=O)O)C(=O)O
binding affinity ratio (Diaminopimelate decarboxylase (lysA, Mycobacterium tuberculosis, UniProt P9WIU7); baseline: compound over D,D-DAP): ~40 fold

Nc1ncnc2c1ncn2[C@@H]1O[C@H](COP(=O)(O)OP(=O)(O)OP(O)(O)=S)[C@@H](O)[C@H]1O
fold change (Serine/threonine-protein kinase PknF (pknF, Mycobacterium tuberculosis, UniProt P9WI75); ATP probe labelling, competitor, chemoproteomics; Mycobacterium tuberculosis, lysate; 500 µM; baseline: untreated): 3.67 fold

CC(C)[C@H](NC(=O)c1nn(Cc2ccc(F)cc2)c2ccccc12)C(=O)O
Emax (CNR2; calcium mobilization, agonist; CHO-K1 expressing Gαq16; baseline: CP55,940 maximum): 54 ± 1%

O=C1c2c(O)ccc(O)c2C(=O)c2c(NCCNCCO)ccc(NCCNCCO)c21
enzyme activity (4'-phosphopantetheinyl transferase PptT (Mycobacterium tuberculosis, UniProt O33336); inhibitor; concentration not given): inactive

O=c1c2ccccc2[se]n1C1CCCCC1
remaining activity (fbpC; inhibitor, resorufin butyrate fluorescence; 5 µM, 40 min preincubation; baseline: untreated): 44 ± 15%

Cc1ccc(/C=C/C(=O)N[C@@]23CCC(=O)[C@@H]4Oc5c(O)ccc6c5[C@@]42CCN(CC2CC2)[C@@H]3C6)cc1
duration of DAMGO antinociception blockade (Oprm1 (Rattus norvegicus, UniProt P33535); antagonist; rat PGE2 thermal hypersensitivity; intraplantar, 0.25 µg/50 µL): ≤ 96 h

CC1N=C(c2ccccc2F)c2cc(NC(C)(C)C)ccc2NC1=O (stereo not drawn)
inhibition (ADRA2A; ligand displacement, radioligand; 10 µM): 6%

CN1CCN(C(=O)OC2c3nccnc3C(=O)N2c2ccc(Cl)cn2)CC1 (stereo not drawn)
Emax (Gabrg2/Gabra2, with β3 subunit (Rattus norvegicus, UniProt P18508+P23576); GABA-induced chloride current, two-electrode voltage clamp; Xenopus oocytes; added: GABA at EC3): 356 ± 22%

C#Cc1ccc2c(c1)C(c1ccccc1F)=N[C@H](C)c1c(C(=O)NC)ncn1-2
minimum effective concentration (Gabrg2/Gabra5 with β3 subunit; GABA-A α5β3γ2 current, positive allosteric modulator, two-electrode voltage clamp; Xenopus oocytes; added: GABA EC3-5): ≥ 10 nM

O=c1[nH]c(/C=C/c2cc(O)ccc2O)c([N+](=O)[O-])c(=O)[nH]1
Ks (ribE; enzyme activity, substrate; Mycobacterium tuberculosis, recombinant riboflavin synthase; pH 7.0): 7.7 ± 1.3 µM

CCCCCCC1(c2cc(O)c3c(c2)OC(C)(C)[C@@H]2CCC(=O)C[C@@H]32)CCC1
selectivity ratio (Cnr1 (Rattus norvegicus, UniProt P20272); binding; baseline: Ki CB2 mouse over CB1 rat): 16 fold

O=c1[nH]c(/C=C/c2cc([N+](=O)[O-])ccc2O)c([N+](=O)[O-])c(=O)[nH]1
Ks (ribE; enzyme activity, substrate; Mycobacterium tuberculosis, recombinant riboflavin synthase; pH 7.0): 10 ± 0.5 µM

CN(C(=O)/C=C/c1ccoc1)[C@@H]1CC[C@@]2(O)[C@H]3Cc4cccc5c4[C@@]2(CCN3CC2CC2)[C@H]1O5
log relative intrinsic activity (OPRK1; beta-arrestin 2 recruitment, agonist, Tango; HEK293; concentration not given; baseline: U50488H): -0.28 ± 0.03

CC1(C)Oc2cc([C@]34CC5CC(C[C@@](CN=C=S)(C5)C3)C4)cc(O)c2[C@@H]2C[C@H](O)CC[C@H]21
covalent labeling (CNR2; radioligand binding Bmax reduction; HEK293 membranes; 10-fold Ki, added: [3H]CP-55,940; baseline: untreated): 74%

CNC(=O)[C@@H](NC(=O)c1nn(Cc2ccc(F)cc2)c2ccccc12)C(C)C
Emax (CNR2; calcium mobilization, agonist; CHO-K1 expressing Gαq16; baseline: CP55,940 maximum): 73 ± 3%

CC1(C)Oc2cc([C@]34CC5CC(C[C@@](N=C=S)(C5)C3)C4)cc(O)c2[C@@H]2C[C@H](O)CC[C@H]21
covalent labeling (Cnr1 (Rattus norvegicus, UniProt P20272); radioligand binding Bmax reduction; rat brain membranes; 10-fold Ki, added: [3H]CP-55,940; baseline: untreated): 54%

NC(=O)[C@H](Cc1ccccc1)NC(=O)c1nn(Cc2ccc(F)cc2)c2ccccc12
Emax (CNR2; calcium mobilization, agonist; CHO-K1 expressing Gαq16; baseline: CP55,940 maximum): 66 ± 8%

CCCCCc1cc(O)c2c(c1)OC(C)(C)[C@@H]1CCC(C)=C[C@@H]21
remaining fluorescence (FABP1 (Homo sapiens, UniProt P07148); binding, DAUDA displacement; concentration not given; baseline: no competitor): 52 ± 4%

CN1CC[C@]23c4c5ccc(O)c4O[C@H]2[C@@H](O)C=C[C@H]3[C@H]1C5
Emax (Nociceptin receptor (OPRL1, Homo sapiens, UniProt P41146); agonist): 13.8%

O=c1c2ccccc2[se]n1CC1CCCCC1
remaining activity (fbpC; inhibitor, resorufin butyrate fluorescence; 5 µM, 40 min preincubation; baseline: untreated): 30 ± 16%

β-endorphin
response amplitude (water-soluble µ-opioid receptor human; binding, graphene microelectrode Faradaic current; 1× PBS; concentration not given, pH 7.4): -0.89 ± 0.03 pA

NC(=O)[C@@H](NC(=O)c1nn(Cc2ccc(F)cc2)c2ccccc12)c1ccccc1
Emax (CNR2; calcium mobilization, agonist; CHO-K1 expressing Gαq16; baseline: CP55,940 maximum): 69 ± 10%

CCCCCc1cc(O)c2c(c1)OC(C)(C)[C@@H]1CCC(C)=C[C@@H]21
Emax (Cnr1 (Mus musculus, UniProt P47746); G protein activation, agonist; ICR mouse, male, cerebellar membranes; baseline: basal binding): 56%

COc1ccccc1Cn1[se]c2ccccc2c1=O
remaining activity (fbpC; inhibitor, resorufin butyrate fluorescence; 5 µM, 40 min preincubation; baseline: untreated): 36 ± 4%

C1CCC2(CC1)CCNCC2
remaining activity (Matrix protein 2 (Influenza A virus, UniProt P0DOF5); ion channel current, inhibitor, two-electrode voltage clamp; Xenopus oocytes; 100 µM): 5%

CCCN(CCC)[C@@H]1CCc2ccc(O)cc2C1
radioligand displacement (dopamine D2/D3 receptor; competitor, in vitro autoradiography; rabbit brain slices; 10 µM, added: 18F-fallypride): > 90%

CN[C@@](C)(C[18F])C(=O)O
tracer uptake (MDA-MB-468 tumour model; host not given, blood; 2 h, tumour-bearing): 0.5 %ID/g

CN(CC(N)=O)C(=O)C(C)(C)NC(=O)c1nn(Cc2ccc(F)cc2)c2ccccc12
Emax (CNR2; calcium mobilization, agonist; CHO-K1 expressing Gαq16; baseline: CP55,940 maximum): 77 ± 3%

COc1ccc2c(c1)[C@]13CCCC[C@@H]1[C@H](C2)N(C)CC3
Km (CYP2D (rat); substrate, measured: dextrorphan; saline-treated rats, rat liver microsomes; pH 7.4, 37 °C, high-affinity component): 1.08 ± 0.3 µM

C=CCn1[se]c2ccccc2c1=O
remaining activity (fbpC; inhibitor, resorufin butyrate fluorescence; 5 µM, 40 min preincubation; baseline: untreated): 15 ± 2%

CN(C(=O)/C=C/c1ccoc1)[C@@H]1CC[C@@]2(O)[C@H]3Cc4ccc(O)c5c4[C@@]2(CCN3CC2CC2)[C@H]1O5
log relative intrinsic activity (OPRK1; G protein activation, agonist, GloSensor cAMP; HEK293T; concentration not given; baseline: U50488H): 0.94 ± 0.14

C[C@H]1N=C(c2ccccc2F)c2cc(Br)ccc2NC1=O
inhibition (ADRA2A; ligand displacement, radioligand; 10 µM): 11%

NC(=S)c1ccc[n+]([C@@H]2O[C@H](COP(=O)([O-])OP(=O)(O)OC[C@H]3O[C@@H](n4cnc5c(N)ncnc54)[C@H](O)[C@@H]3O)[C@@H](O)[C@H]2O)c1
Km (Type II NADH:quinone oxidoreductase Ndh; transhydrogenase activity, substrate; added: NADH): 20 ± 3 µM

O=c1[nH]c(/C=C/c2cccc(O)c2O)c([N+](=O)[O-])c(=O)[nH]1
Ks (ribE; enzyme activity, substrate; Mycobacterium tuberculosis, recombinant riboflavin synthase; pH 7.0): 7.2 ± 1 µM

Cc1ccc(N(C)S(=O)(=O)c2ccc3[nH]c(=O)c(=O)[nH]c3c2)cc1
activity class (eis (Mycobacterium tuberculosis, UniProt P9WFK7); inhibitor, HTS; 20 µM): inactive

C[C@]12CC[C@H](O)CC1=CC[C@@H]1[C@@H]2CC[C@]2(C)C(=O)CC[C@@H]12
Km (HSD3B2 (Homo sapiens, UniProt P26439); substrate; pH 7.4, 27 °C, added: NAD+ 200 µM): 47.3 µM

O=C(NCC1CCCCC1)c1nn(Cc2ccc(F)cc2)c2ccccc12
Emax (CNR2; calcium mobilization, agonist; CHO-K1 expressing Gαq16; baseline: CP55,940 maximum): 78 ± 6%

CN1C(=O)CN=C(c2ccccc2)c2cc(Cl)ccc21
Emax (Gabrg2/Gabra5 with β3 subunit; GABA-induced chloride current, two-electrode voltage clamp; Xenopus oocytes; added: GABA at EC3): 321 ± 14%

COC1=C(OC)C(=O)C(CC=C(C)C)=C(C)C1=O
Km (Type II NADH:quinone oxidoreductase Ndh; enzyme activity, substrate): 50 ± 20 µM
